# Results gathered from unrelated publications.
# Parts stem from different laboratories: compare values within a part only. Positions count from the first letter of the parent shown.

# Series 1
# Target: CCNB2, cyclin fold, Cln2 fusion (human)
# Method: yeast growth competition, sequencing
# Matrix: yeast
# Setting: weak parent motif
# Reference: not given
# Direction: higher = stronger binding
# Starting sequence: RP1L1 docking peptide (human); TLGLGPLSFTLED; partner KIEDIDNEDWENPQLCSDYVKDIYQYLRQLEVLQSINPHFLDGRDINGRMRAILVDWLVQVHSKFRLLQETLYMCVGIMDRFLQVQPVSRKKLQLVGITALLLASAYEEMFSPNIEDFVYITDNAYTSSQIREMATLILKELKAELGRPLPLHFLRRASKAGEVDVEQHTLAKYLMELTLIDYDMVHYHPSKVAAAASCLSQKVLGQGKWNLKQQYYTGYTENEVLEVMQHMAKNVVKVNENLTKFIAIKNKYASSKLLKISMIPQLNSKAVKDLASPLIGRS
Substitution,normalised enrichment score
L2A,-0.885
P6A,-0.782
E12A,-0.934
L7A,-0.533
F9A,-0.526
L11A,-0.998

# Series 2
# Target: RNA binding protein fox-1 homolog 2, RRM domain, GST-SBP tag (RBFOX2, Homo sapiens, UniProt O43251-10, residues 100-194)
# Method: RNA Bind-n-Seq
# Molecule type: RNA
# Matrix: in vitro
# Tested at: 365 nM
# Setting: natural RNA segment, single round, ends assumed
# Reference: no-protein control
# Direction: higher = stronger binding
# Shared flanks, not repeated: GGGAGUUCUACAGUCCGACGAUC … UGGAAUUCUCGGGUGCCAA
# Residues (chain): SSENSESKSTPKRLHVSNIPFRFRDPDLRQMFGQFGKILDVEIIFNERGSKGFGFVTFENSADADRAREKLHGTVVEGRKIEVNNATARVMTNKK
Oligonucleotide,RBNS enrichment (R)
GAGUGCCACAGGAAGGGUAGGCCCUGGGACAGUGGCUUCAAGUGUCUUUGAGCAAGUAGGCAAGAUAAGCUCUUCCUUCGUCACAGCCAUGACCAUCAGGUUAGUAACCG,0.46
UUGUAAUGCCAGCAUUCCUCUUCCCCAUUUCCAGCUGUCACUCCUUCAUUAAACUGCUGAGUCAUUCCUUCCUUUGUCCCUUGGUUGUUUUUCUGUCUGUGGGAAAGUGU,0.569
AUUGUUUGCUCUCCUGUCUGCCCCAGCUGUUUCUGGCAUAUUAUUUUUUGUUAGCUGAGACAUUGACAUGUUUGUAUUUAAUUCUCUUGAUAAAUUAGCUACUACAACCC,1.01
UAGGACUUUUCUAACAUAUGUCUAUAAUAUAGUGUUUAGGUUCUUUUUUUUUUCAGGAAUACAUUUGGAAAUUCAAAACAAUUGGCAAACUUUGUAUUAAUGUGUUAAGU,0.432
GCUCACCCUUCUUAACAUUCUGUAAUGGUUACAGAUGAGAAUGGAAAACACAUAUUUUAUGGAUGAGGCGUUUUGGUCUCCCCUGCAGUCGAUUUCUAGAAUCAAGUUUU,0.303
UCCUUGAAGAAUGGGUUCUGUGUCUAAUCCUGAAACAAAGAAAACUACAAGCUGGAGUGUAGGAAUUGACUAUAGCAAUUUGAUACAUUUUUAAAGCUGCUUCCUGUUUG,0.513
CAGUGGCGGAGUGAGGUGCCCUGGAGAAGCAGGCUUUGAAGGCACAGCGAAGCUGUAACUGAGGACCCUGCUGCUCGGGAAGGAGGUGGUUUCCAGUGUGACUCGGCAUG,0.649
UCAUGGUGUAAAAAACACACACAUACACAAAUAUUUGUAACAUAUUGUGACCAAAUGGGCCUCAAAGAUUCAGAUUGAAACAAACAAAAAGCUUUUGAUGGAAAAUAUGU,0.642

# Series 3
# Target: Interferon regulatory factor 3, full length, phosphomimetic (IRF3, Homo sapiens, UniProt Q14653, residues 1-427, S386D/S396D/S398D/S402D/T404D/S405D)
# Sequence of UniProt Q14653 (whole entry, unmodified, looked up): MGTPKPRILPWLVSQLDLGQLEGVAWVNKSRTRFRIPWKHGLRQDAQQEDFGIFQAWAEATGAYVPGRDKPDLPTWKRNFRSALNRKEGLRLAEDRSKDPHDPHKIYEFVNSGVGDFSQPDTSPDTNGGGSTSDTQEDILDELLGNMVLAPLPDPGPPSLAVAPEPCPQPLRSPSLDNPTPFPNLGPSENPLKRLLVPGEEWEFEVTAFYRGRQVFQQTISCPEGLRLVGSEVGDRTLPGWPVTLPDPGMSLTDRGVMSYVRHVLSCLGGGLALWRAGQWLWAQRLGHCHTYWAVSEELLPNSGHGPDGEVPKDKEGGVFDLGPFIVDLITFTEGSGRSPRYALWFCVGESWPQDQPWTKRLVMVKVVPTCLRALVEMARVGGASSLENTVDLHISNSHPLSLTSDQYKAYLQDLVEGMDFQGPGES
# Method: protein-binding microarray
# Molecule type: double-stranded DNA, one strand shown
# Matrix: in vitro
# Tested at: 2540 nM top
# Setting: 60-bp whole probe
# With: salmon DNA 0.4 mg/ml
# Reference: random background probes
# Direction: higher = stronger binding
# Shared flanks, not repeated: GCCTAGCAC … GTCTTGATTCGCTTGACGCTGCTG
Oligonucleotide,fitted relative affinity
TCAGATTTCAGTTTCGATTAGTGCTAG,6.13 z-score
GACGATCTCGGTATCGGGACGTGCTAG,1.33 z-score
GACGAATTCAGTTCCGAGACGTGCTAG,1.46 z-score
CTAGATCTCAGTATCGATTAGTGCTAG,0.986 z-score
CGAGATCTCCGAGATGCCTTCGTGCTA,-0.363 z-score
TTAGATTTCGGATATCGATTAGTGCTA,2.76 z-score
TAGCTTCTCAATTAAAAAAAGTGCTAG,0.211 z-score
TAACTTTCCAATTGTCCTTTCGTGCTA,5.3 z-score
TTAGATATCGGGTATCGATTGGTGCTA,0.116 z-score
GACGGTCTCCTACTTCTGACGTGCTAG,2 z-score

# Mixed results
Substance,target,assay,system,setting,scale,measurement,result
"PhoQ, residues 284 288 289 292 302 303 NLALSC","PhoP, residues 12 14 15 18 19 SPWRL (Escherichia coli, UniProt P23836)","Sort-seq, item: YFP reporter",E. coli,"PhoQ-PhoP variant library, with: 10 µM Mg2+","reference: high Mg2+ state, higher = stronger signaling",fold induction,5.84

# Some of these lines once more (series 2):
Oligonucleotide,RBNS enrichment (R)
GAGUGCCACAGGAAGGGUAGGCCCUGGGACAGUGGCUUCAAGUGUCUUUGAGCAAGUAGGCAAGAUAAGCUCUUCCUUCGUCACAGCCAUGACCAUCAGGUUAGUAACCG,0.46
GCUCACCCUUCUUAACAUUCUGUAAUGGUUACAGAUGAGAAUGGAAAACACAUAUUUUAUGGAUGAGGCGUUUUGGUCUCCCCUGCAGUCGAUUUCUAGAAUCAAGUUUU,0.303
